Assay results gathered from unrelated publications.
Every numbered part comes from another study and shows a few of its results, in no order. Changes are numbered by the printed parent chain.

Sample 1
Target: UBE2Z UBC core domain (UniProt Q9H832)
Technique: yeast two-hybrid
Sample: yeast
Setting: mostly zero background
Reference: not given
Reading: higher = stronger interaction
Endpoint: lacZ reporter activity
B1: TRAF5 RING domain (UniProt O00463); chain FVERLEERYKCAFCHSVLHNPHQTGCGHRFCQHCILSLRELNTVPICPVDKEVIKSQEVFK
B2: RNF111 RING domain (UniProt Q6ZNA4); chain EGTEEDTEEKCTICLSILEEGEDVRRLPCMHLFHQVCVDQWLITNKKCPICRVDIEAQLPSE
B3: TRIM43 RING domain (UniProt Q96BQ3); chain FSHAFQKELTCVICLNYLVDPVTICCGHSFCRPCLCLSWEEAQSPANCPACREPSPKMDFKT
B4: TRIM40 RING domain (UniProt Q6P9F5); chain LQKDNQEEGVCPICQESLKEAVSTNCGHLFCRVCLTQHVEKASASGVFCCPLCRKPCSEEVLG
B5: RNF208 RING domain (UniProt Q9H0X6); chain SSAAAGEPLECPTCGHSYNVTQRRPRVLSCLHSVCEQCLQILYESCPKYKFISCPTCRRETVLFTDYG
B6: SH3RF2 RING domain (UniProt Q8TEC5); chain DDLTLLDLLECPVCFEKLDVTAKVLPCQHTFCKPCLQRVFKAHKELRCPECRTPVFSNIEAL
Target sequence (chain): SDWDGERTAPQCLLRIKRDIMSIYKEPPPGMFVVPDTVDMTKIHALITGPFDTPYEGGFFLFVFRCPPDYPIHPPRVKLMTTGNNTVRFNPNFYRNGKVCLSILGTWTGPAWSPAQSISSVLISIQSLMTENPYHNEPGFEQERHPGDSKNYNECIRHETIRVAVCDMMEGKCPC
B1 (TRAF5 RING domain): 0
PAELEVQASECVVCLEREAQMIFLNCGHVCCCQQCCQPLRTCPLCRQDIAQRLRIY (LRSAM1 RING domain (UniProt Q6UWE0)): 0
B2 (RNF111 RING domain): 0
B3 (TRIM43 RING domain): 0
B4 (TRIM40 RING domain): 0
B5 (RNF208 RING domain): 0
QVDKAVFHMQSVKCLKCQEQKRAVLPCQHAALCELCAEGSECPICQPGRAHTLQS (UNK RING domain (UniProt Q9C0B0)): 0
B6 (SH3RF2 RING domain): 0
FQGDVDEDLICPICSGVLEEPVQAPHCEHAFCNACITQWFSQQQTCPVDRSVVTVAHLRP (RNF41 RING domain (UniProt Q9H4P4)): 1080
VEPSEENSKDCVVCQNGTVNWVLLPCRHTCLCDGCVKYFQQCPMCRQFVQESFALC (CGRRF1 RING domain (UniProt Q99675)): 0
ASLPTSEEDLCPICYAHPISAVFQPCGHKSCKACINQHLMNNKDCFFCKTTIVSVEDWE (RNF123 RING domain (UniProt Q5XPI4)): 0

Sample 2
Target: RNA binding protein fox-1 homolog 2, RRM domain, GST-SBP tag (RBFOX2, Homo sapiens, UniProt O43251-10, residues 100-194)
Technique: RNA Bind-n-Seq
Form: RNA
Sample: in vitro
Concentration: 365 nM
Setting: natural RNA segment, single round, ends assumed
Reference: no-protein control
Reading: higher = stronger binding
Endpoint: RBNS enrichment (R)
Residues (chain): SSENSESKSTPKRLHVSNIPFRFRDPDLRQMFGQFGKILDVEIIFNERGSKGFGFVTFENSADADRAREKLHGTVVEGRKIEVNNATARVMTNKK
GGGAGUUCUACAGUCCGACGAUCUGGUUGGAUUAGGCACCCUUCAUGCCUGCUACCAGGAACUCUCAGAUCUGCUUGCCCCAAACAAAUGGUGUAAGCUGAGGGAAACUCCAACCCCACACUUGAUGCUCUGUUGGAAUUCUCGGGUGCCAA: 1.93
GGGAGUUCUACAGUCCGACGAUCUGGGGGAGCAAGACUUCAUCUGUAUGUACAUUCAGAGUCUUCCCAUAGCUCUUAAACCGUGUGGGUGAAUGGUGUCUAAUUGCACCCCUUUGUGUUCUCACUUGCAUAAAUGGAAUUCUCGGGUGCCAA: 0.429
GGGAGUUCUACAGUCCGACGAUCUUGCUGGAAGGAGAAAAGGAAGGAAUCCCCCGAAAAUCAAAGCAGUCAGAAAAACCAGAGCGACUGUUAAGGGCUUUGGCCAGCUUUCUAGGCAGCGAGUGCAGGUGACAUGGAAUUCUCGGGUGCCAA: 0.751
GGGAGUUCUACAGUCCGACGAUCAAAAGAAAAUCCCGGUGCUUGCAGUAGAGUGAUAGGACAUUCUAUGCUUACAGAAAAUAUAGCCAUGAUUGAAAUCAAAUAGUAAAGGCUGUUCUGGCUUUUUAUCUUCUUGGAAUUCUCGGGUGCCAA: 0.538
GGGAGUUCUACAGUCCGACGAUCACCCCGGGGCUAUUGGAACCCUUCCAACACUUUUUCCUUUGUCAUAGACAAGUUUAUAUAUAACUUACCAAGAUGUUGGCUGUCCUGGUGUAUUGCCAGACAGCUCUCUUUGGAAUUCUCGGGUGCCAA: 0.464
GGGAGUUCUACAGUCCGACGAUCCUGUAAGUUGGUGUUGGUUAUGCAGAAAUGUGUAACAGAUCAAACGGUCCUCUCAAGUGUCUAUUAGAUAGGCAAUAAGAACUGCAGUGUAGCUGAGUAACAUCUUUUAGUGGAAUUCUCGGGUGCCAA: 0.239
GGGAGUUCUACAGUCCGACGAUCAAGCAGGGCAAUGCAGCCAAAUAUUAGAGUUGAUGUGCAGUCUUAGGUCCUUUUUAAUCUGGGGUAUUACAGGCAGUACUUUAAAUCAGAGUCUUCCUGGCCUUUUUCCCUGGAAUUCUCGGGUGCCAA: 0.475
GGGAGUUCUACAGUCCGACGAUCGAAGCAGCUACCUAAUUGGCAGGCCAAGGAGGAGUGCUGUCUGUCCAAGAGGGGACCUGUGGCCAGAUACUUUCCACUUUAGGCUCACAGGGUUGAGUUGCAAAAGCCACUGGAAUUCUCGGGUGCCAA: 0.396

Sample 3
Target: CCNA2, cyclin fold, Cln2 fusion (human)
Technique: yeast growth competition, sequencing
Sample: yeast
Setting: strong parent motif
Reference: not given
Reading: higher = stronger binding
Endpoint: normalised enrichment score
Parent: E2F1 docking peptide (human); PPVKRRLDFETDH
P2T: 6.03
T11A: 5.5
R5C: 3.71
P2H: 6.45
E10L: 6.19
D12F: 6.29
R6Y: 4.84
D12T: 5.93
D8G: 5.82
R6S: 5.52
R5W: 0.276
E10W: 6.81
D12K: 6.29
V3C: 5.52
D12Y: 5.92
E10S: 5.95
F9C: 0.391
L7R: -0.00127
V3M: 4.98
E10Y: 6.56
R5Q: 3.07
D12L: 5.92

Sample 4
Target: ABI1, truncated, D143A, DHFR fusion (Arabidopsis thaliana, UniProt P49597)
Technique: DHFR PCA, dose-response
Sample: yeast
Setting: Hill fit, mean, not affinity
Added: (+)-ABA, dose series
Reading: lower = more sensitive
Endpoint: ABA EC50
Parent: PYL1, truncated, DHFR fusion (Arabidopsis thaliana, UniProt Q8VZS8); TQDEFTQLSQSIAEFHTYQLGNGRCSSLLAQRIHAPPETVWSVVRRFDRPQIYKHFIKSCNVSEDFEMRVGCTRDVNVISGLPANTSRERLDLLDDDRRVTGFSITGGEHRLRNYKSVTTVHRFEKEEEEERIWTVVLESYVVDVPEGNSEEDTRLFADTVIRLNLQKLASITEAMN
M176I: 3.29 µM
E130I: 2.96 µM
I52N: 9.42 µM
H122T: 163 µM
V137L: 60.7 µM
T1V: 0.822 µM
S59L: 45.5 µM
D65H: 2.65 µM
F56S: 837 µM
S59T: 1.71 µM
I133C: 1.83 µM
T154S: 126 µM
S87T: 104 µM
A175M: 2.18 µM
G71L: 176 µM
D159L: 874 µM
R49G: 45.3 µM
D65P: 2.79 µM
